# Assay results from different studies.
# Lines come from different studies, so protocols differ. ± marks the error that the study gave.
# NNMT SAM-bound: Nicotinamide N-methyltransferase, SAM-bound (NNMT, Homo sapiens, UniProt P40261)
# Chain of UniProt P40261 (whole entry, looked up): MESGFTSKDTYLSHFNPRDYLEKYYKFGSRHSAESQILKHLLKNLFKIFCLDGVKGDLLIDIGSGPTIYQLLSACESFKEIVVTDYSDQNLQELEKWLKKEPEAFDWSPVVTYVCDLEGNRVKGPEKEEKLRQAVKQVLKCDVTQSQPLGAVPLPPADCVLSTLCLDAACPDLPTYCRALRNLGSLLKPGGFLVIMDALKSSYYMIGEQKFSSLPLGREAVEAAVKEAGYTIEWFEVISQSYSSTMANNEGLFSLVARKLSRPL
# TDP1: Tyrosyl-DNA phosphodiesterase 1 (TDP1, Homo sapiens, UniProt Q9NUW8)
# Chain of UniProt Q9NUW8 (whole entry, looked up): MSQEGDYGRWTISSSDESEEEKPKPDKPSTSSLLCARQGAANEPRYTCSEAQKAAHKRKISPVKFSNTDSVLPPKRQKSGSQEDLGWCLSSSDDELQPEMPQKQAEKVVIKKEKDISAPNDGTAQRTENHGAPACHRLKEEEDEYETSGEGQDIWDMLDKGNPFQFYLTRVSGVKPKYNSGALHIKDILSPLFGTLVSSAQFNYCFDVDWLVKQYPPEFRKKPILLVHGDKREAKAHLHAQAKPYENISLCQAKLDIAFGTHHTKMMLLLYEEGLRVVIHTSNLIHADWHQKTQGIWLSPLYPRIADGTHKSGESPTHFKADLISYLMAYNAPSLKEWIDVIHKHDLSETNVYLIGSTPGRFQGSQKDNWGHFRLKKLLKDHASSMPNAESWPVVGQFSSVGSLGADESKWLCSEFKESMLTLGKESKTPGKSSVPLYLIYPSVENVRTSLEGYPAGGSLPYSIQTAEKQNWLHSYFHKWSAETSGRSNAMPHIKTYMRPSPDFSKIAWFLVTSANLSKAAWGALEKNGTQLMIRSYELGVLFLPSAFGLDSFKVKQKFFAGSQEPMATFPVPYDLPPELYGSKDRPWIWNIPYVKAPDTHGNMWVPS
# MBLAC2: MBLAC2 (Homo sapiens, UniProt Q68D91)
# Chain of UniProt Q68D91 (whole entry, looked up): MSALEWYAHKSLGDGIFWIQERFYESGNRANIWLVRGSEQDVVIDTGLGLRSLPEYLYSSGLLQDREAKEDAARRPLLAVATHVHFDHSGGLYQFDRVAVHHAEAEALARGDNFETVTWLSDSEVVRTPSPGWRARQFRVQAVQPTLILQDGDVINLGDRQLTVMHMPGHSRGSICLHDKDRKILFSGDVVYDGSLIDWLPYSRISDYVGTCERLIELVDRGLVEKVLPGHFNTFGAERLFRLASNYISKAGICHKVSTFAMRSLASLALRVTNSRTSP
# Uncharacterized protein: Uncharacterized protein (Trypanosoma brucei brucei, UniProt Q386Q8)
# Chain of UniProt P04756 (whole entry, unmodified, looked up): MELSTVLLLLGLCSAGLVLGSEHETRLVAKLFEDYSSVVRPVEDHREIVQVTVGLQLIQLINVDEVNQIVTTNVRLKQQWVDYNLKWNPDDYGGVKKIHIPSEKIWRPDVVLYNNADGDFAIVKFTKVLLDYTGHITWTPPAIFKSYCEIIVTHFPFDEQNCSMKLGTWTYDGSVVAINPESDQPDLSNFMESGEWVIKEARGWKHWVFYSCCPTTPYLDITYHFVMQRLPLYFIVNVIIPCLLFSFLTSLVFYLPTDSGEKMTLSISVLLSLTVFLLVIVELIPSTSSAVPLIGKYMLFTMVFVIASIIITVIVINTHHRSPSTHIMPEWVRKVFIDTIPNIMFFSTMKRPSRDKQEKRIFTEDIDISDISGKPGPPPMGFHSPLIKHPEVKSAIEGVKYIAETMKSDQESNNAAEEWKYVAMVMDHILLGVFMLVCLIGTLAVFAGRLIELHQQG
# Chain of UniProt O75151 (whole entry, looked up): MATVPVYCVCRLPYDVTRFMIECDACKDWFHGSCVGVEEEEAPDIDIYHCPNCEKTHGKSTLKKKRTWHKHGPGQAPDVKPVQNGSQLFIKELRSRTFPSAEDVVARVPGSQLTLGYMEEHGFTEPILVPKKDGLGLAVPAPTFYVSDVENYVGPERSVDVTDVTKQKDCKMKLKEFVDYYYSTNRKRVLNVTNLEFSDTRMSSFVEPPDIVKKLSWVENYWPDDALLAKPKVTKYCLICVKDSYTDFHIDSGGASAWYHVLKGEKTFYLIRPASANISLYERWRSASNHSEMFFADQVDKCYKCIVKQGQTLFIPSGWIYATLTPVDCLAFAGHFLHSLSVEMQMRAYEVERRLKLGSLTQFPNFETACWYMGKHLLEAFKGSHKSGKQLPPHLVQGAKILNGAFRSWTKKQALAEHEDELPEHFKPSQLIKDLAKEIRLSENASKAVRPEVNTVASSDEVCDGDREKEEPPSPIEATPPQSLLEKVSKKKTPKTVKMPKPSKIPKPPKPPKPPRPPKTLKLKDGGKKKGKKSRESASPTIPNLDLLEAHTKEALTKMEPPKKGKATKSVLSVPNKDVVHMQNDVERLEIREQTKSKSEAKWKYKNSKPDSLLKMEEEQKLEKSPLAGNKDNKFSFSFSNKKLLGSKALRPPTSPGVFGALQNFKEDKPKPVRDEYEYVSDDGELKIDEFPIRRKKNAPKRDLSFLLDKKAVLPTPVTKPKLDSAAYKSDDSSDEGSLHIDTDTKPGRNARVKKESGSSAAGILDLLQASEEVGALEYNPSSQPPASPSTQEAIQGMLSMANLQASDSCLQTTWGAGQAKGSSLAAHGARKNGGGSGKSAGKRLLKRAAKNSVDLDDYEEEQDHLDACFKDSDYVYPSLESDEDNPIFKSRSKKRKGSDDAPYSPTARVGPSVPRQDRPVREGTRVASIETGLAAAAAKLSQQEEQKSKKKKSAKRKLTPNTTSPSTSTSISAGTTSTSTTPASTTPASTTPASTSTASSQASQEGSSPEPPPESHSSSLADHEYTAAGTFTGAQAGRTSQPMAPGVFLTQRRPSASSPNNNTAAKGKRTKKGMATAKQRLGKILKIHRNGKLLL
# Chain of UniProt P23458 (whole entry, looked up): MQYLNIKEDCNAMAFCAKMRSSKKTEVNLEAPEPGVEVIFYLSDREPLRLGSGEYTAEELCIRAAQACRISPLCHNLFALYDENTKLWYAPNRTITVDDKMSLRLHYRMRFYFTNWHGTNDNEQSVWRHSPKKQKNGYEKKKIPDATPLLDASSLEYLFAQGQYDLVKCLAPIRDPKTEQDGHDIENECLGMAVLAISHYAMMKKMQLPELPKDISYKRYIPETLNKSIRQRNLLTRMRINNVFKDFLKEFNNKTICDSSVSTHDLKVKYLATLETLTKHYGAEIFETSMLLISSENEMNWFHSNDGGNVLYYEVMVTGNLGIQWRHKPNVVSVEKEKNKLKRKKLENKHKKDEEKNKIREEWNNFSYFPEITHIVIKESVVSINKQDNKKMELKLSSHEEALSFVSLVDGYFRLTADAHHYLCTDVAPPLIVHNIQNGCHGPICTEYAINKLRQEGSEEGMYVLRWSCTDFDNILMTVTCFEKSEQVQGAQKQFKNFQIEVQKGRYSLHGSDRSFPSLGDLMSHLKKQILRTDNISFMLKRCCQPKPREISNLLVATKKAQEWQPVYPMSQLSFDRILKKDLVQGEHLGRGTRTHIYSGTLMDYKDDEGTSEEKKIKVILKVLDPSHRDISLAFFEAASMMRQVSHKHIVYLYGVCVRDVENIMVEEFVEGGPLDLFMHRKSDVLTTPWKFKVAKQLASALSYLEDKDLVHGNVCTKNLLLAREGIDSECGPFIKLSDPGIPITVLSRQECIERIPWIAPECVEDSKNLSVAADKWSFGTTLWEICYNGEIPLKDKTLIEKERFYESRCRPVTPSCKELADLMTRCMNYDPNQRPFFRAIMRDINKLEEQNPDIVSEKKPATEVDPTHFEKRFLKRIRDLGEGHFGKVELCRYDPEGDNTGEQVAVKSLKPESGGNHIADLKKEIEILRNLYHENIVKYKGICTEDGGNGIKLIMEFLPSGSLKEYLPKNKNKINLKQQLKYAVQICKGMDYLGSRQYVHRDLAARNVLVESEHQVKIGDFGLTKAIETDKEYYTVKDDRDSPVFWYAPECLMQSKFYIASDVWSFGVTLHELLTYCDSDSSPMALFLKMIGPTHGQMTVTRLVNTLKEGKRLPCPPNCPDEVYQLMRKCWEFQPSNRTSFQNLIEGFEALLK
# Chain of UniProt P08191 (whole entry, looked up): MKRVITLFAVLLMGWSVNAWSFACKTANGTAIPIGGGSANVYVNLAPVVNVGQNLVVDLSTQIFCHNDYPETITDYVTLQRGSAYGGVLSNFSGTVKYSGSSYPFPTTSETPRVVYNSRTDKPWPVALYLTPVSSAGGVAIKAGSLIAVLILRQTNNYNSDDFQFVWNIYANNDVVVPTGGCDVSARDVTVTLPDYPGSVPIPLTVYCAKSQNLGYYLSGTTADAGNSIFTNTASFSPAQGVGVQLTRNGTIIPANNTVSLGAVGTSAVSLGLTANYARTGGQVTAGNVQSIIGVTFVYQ
# Chain of UniProt P61077 (whole entry, looked up): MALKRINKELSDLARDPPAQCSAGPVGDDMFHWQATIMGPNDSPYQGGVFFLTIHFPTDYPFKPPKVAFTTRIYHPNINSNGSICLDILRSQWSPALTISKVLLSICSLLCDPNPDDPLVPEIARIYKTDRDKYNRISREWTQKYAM
# Chain of UniProt P20782 (whole entry, unmodified, looked up): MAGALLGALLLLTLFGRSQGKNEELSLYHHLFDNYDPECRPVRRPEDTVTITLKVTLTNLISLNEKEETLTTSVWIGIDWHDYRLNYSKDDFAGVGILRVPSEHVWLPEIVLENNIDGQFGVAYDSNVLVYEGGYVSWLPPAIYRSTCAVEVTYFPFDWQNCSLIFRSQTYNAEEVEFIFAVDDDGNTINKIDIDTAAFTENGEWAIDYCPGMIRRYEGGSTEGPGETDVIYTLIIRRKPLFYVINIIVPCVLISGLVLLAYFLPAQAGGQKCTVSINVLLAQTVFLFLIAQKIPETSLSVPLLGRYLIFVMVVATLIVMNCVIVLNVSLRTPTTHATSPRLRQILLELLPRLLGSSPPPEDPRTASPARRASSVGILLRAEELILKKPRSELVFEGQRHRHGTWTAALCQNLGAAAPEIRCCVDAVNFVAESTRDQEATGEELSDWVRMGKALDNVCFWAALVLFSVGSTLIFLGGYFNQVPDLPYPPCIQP
SMILES,tested on,test,test system,conditions,quantity,result
CCOC(=O)C1CC(CC)C2C=CC3CCN(C(=O)C4CCC5C=CC6(CCCN6C(=O)C(Cc6ccccc6Cl)NC(C)=O)C(=O)N54)C3C(=O)N12 (stereo not shown),"YAP1 (Homo sapiens, UniProt P46937)","binding, NMR",,,Kd,1100 µM
CCCCCCCO[C@H]1CO[C@H](CO)[C@@H](O)[C@H](O)[C@@H]1O,"Type 1 fimbrin D-mannose specific adhesin, lectin domain (fimH, Escherichia coli K-12, UniProt P08191)","binding, isothermal titration calorimetry",,"37 °C, global fit, two runs",Kd,0.661 µM
COc1ccc(C(N)=O)cn1,NNMT SAM-bound,"substrate, SPR",,"20 °C, together with: SAM",Kd,2 µM
COC1(C2=NCCN2)COc2ccccc2O1 (stereo not shown),"Adra2a (Mus musculus, UniProt Q01338)",[3H]compound saturation binding,"HEK293 membranes, HA-tagged receptor",,Kd,0.00343 ± 0.00058 µM
COC(=O)CCCNC(=O)c1cc(S(N)(=O)=O)c(Cl)cc1NC1CCCCC1,"CA6 (Homo sapiens, UniProt P23280)",,,pH 7,Kd,33 µM
Cc1cccc2c1N(C(=O)n1ccnn1)CC2,"KAI2 (Arabidopsis thaliana, UniProt Q9SZU7, F157Y)",ITC,,"F157Y mutant, mean",Kd,445 µM
Cc1cc(OCc2ccccc2Br)c(C)c2c1CCC1C(CN(C)C)C(=O)OC21 (stereo not shown),"UBE2D3 (Homo sapiens, UniProt P61077)","binding, MST",,,Kd,0.0127 µM
Nc1ncnc2c1ncn2[C@@H]1O[C@H](CSCC[C@H](N)C(=O)O)[C@@H](O)[C@H]1O,"NNMT (Homo sapiens, UniProt P40261)",SPR,,together with: SAM,Kd,39.8 µM
Cc1c[nH]c2nccc(-c3ccc(C(=O)N[C@@H]4c5c(F)cc(C(F)F)cc5C[C@@H]4O)cn3)c12,"Tyrosine-protein kinase JAK1, JH2 (JAK1, Homo sapiens, UniProt P23458)","binding, competition with immobilised ligand",,,Kd,2.3 µM
CCCC[C@H](NC(=O)COCCOCCNC(=O)CN1CCN(CC(=O)O)CCN(CC(=O)O)CC1)C(=O)N[C@H]1CC(=O)NCCCC[C@@H](C(N)=O)NC(=O)[C@H](Cc2c[nH]c3ccccc23)NC(=O)[C@H](CCCNC(=N)N)NC(=O)[C@@H](Cc2ccccc2)NC(=O)[C@H](Cc2c[nH]cn2)NC1=O [technetium-99m labelled],,,"C57 mouse, muscle","intravenous, 0.037 MBq, 4 h",tissue uptake,0.03 ± 0.02 %ID/g
CC(C)C[C@@H]1NC(=O)[C@H](Cc2ccc(O)cc2)NC(=O)[C@H](CCCNC(=N)N)NC(=O)[C@H](C)NC(=O)[C@H]([C@@H](C)O)NC(=O)[C@H](Cc2ccc(O)cc2)NC(=O)CSC[C@@H](C(N)=O)NC(=O)[C@H](CCCCN)NC(=O)[C@H](Cc2ccc(O)cc2)NC(=O)[C@H](Cc2c[nH]cn2)NC(=O)[C@H](CC(C)C)NC(=O)[C@H]([C@@H](C)O)NC(=O)CNC(=O)[C@H](CC(C)C)NC(=O)[C@H]([C@@H](C)O)NC1=O,"Huntingtin, residues 97-2069 (HTT, Homo sapiens, UniProt P42858)","binding, fluorescence polarization",,N-terminal domain,Kd,0.0085 µM
NCCCC[C@H](NC(=O)[C@H](C/C=C/C[C@H](NC(=O)[C@@H]1CCCN1)C(=O)N[C@@H](CCCCN)C(=O)NCCCN)NC(=O)[C@@H]1CCCN1)C(=O)NCCCN,HIV-1 frameshift site RNA,SPR,,,Kd,0.302 µM
O=C(O)c1ccc(Nc2c(-c3ccccc3)nc3ccc(CON=Cc4cccc(N5CCOCC5)c4)cn23)cc1 (mixture of isomers),TDP1,"enzyme activity, inhibitor",,"100 µM, unpurified compound",inhibition,72.1%
CNc1cc(F)c(C(N)=O)cn1,NNMT SAM-bound,"substrate, SPR",,"20 °C, together with: SAM",Kd,7.94 µM
CC(=O)N[C@H]1[C@@H](OC(=O)NCCOCCOCCNC(=O)O[C@H]2O[C@H](CO)[C@@H](O)[C@H](O)[C@H]2NC(C)=O)O[C@H](CO)[C@@H](O)[C@@H]1O,wheat germ agglutinin,ITC,,"pH 7.0, 298 K",Kd,1.92 ± 0.06 µM
C[N+]1(C)CCCC1,"Chrnd/Chrna1/Chrne (Mus musculus, UniProt P02716+P04756+P20782, G173K/S470W)","resting state binding, agonist, single-channel kinetics",,,Kd,230 µM
Cc1nn(-c2cccc(N)c2)c(=O)c2cnc(Nc3ccc(N4CCNCC4)cc3)nc12,"EEF2K (Homo sapiens, UniProt O00418)","enzyme activity, inhibitor",,,IC50,> 10 µM
Cc1cncc(Oc2ccc(C=NOCc3ccc4nc(-c5ccccc5)c(Nc5ccc(C(=O)O)cc5)n4c3)cc2)n1,TDP1,"enzyme activity, inhibitor",,"100 µM, unpurified compound",inhibition,111%
CC(/C=C/C(=O)NO)=C\[C@@H](C)C(=O)c1ccc(N(C)C)cc1,MBLAC2,"inhibitor, competition pulldown",SW620 and MV4-11 lysate,1 h,Kd,1.19 µM
CCc1nc2cc3ccccc3cc2cc1C(=O)N1CCC[C@H]1C(=O)N[C@@H](CCC/C=C/CCC[C@H](NC(=O)[C@@H]1CCCN1C(=O)c1cc2cc3ccccc3cc2nc1CC)C(=O)N[C@@H](CCCCN)C(=O)NCCCN)C(=O)N[C@@H](CCCCN)C(=O)NCCCN,HIV-1 frameshift site RNA,SPR,,,Kd,1.38 µM
CCOc1ccc(-c2nnc3n2N=C(c2cc(OC)ccc2OC)CS3)cc1,Uncharacterized protein,"inhibitor, coupled colorimetric",Trypanosoma brucei,,IC50,317 µM
O=C(NC1CCCc2c1[nH]c1ccccc21)c1n[nH]c2c1CCC2 (stereo not shown),"Lysine-specific demethylase PHF2 (Homo sapiens, UniProt O75151)","binding, fluorescence",,,Kd,49 µM
COc1ccc(C(=O)NO)cc1NC(=O)c1ccc(-c2ccccc2)cc1,MBLAC2,"inhibitor, competition pulldown",SW620 and MV4-11 lysate,1 h,Kd,12.9 µM
COc1ccccc1N1Cc2ccc(OC)c(OC)c2C1=O,Uncharacterized protein,"inhibitor, coupled colorimetric",Trypanosoma brucei,,IC50,> 100 µM
CCc1nc2cc3ccccc3cc2cc1C(=O)N1CCC[C@H]1C(=O)N[C@@H](C/C=C/C[C@H](NC(=O)[C@@H]1CCCN1C(=O)c1cc2cc3ccccc3cc2nc1CC)C(=O)N[C@@H](CCCCN)C(=O)NCCCN)C(=O)N[C@@H](CCCCN)C(=O)NCCCN,HIV-1 frameshift site RNA,SPR,,,Kd,0.795 µM

# Some of these lines once more:
SMILES,tested on,test,test system,conditions,quantity,result
O=C(O)c1ccc(Nc2c(-c3ccccc3)nc3ccc(CON=Cc4cccc(N5CCOCC5)c4)cn23)cc1 (mixture of isomers),TDP1,"enzyme activity, inhibitor",,"100 µM, unpurified compound",inhibition,72.1%
